Published values gathered from unrelated publications.
Lines come from different studies, so protocols differ. ± marks the error that the study gave.

CC1=CC(=O)c2ccccc2C1=O
selectivity index (MOLT-3; XTT; reference: IC50 MRC-5 over IC50 MOLT-3): 2.18

COc1cc2c(c(OC)c1OC)-c1ccc(OC)c(=O)cc1[C@@H](NC(C)=O)CC2
inhibition (BT-16; cell viability, MTT; 10 µM, 72 h): 91.6%

C[C@H]1[C@@H](O)O[C@@H]2O[C@@]3(C)CC[C@H]4[C@H](C)CC[C@@H]1[C@@]24OO3
early apoptotic cells (THP-1; annexin V/PI flow cytometry, item: annexin V+/PI-; 0.2 µM, 24 h): 2.7%

[Cl-].[Cl-].[Os+2].c1cnc2c(c1)ccc1cccnc12.c1cnc2c(c1)ccc1cccnc12.c1cnc2c(c1)ccc1cccnc12
phototherapeutic index (SK-MEL-28; red light, 1% O2 hypoxia; reference: dark EC50 over red EC50): 1

COc1ccc([C@H]2N(c3ccc(Cl)c(Cl)c3)C(=O)[C@@H]3CCCN32)c(OC)c1OC (racemic)
Ca2+ release (PC-12 cells expressing mutant huntingtin; carbachol-stimulated IP3R Ca2+ release; 50 µM, 2 days, added: 1 mM carbachol; reference: mutant huntingtin alone): decreased

CC1(C)Oc2ccc(CC3=C(c4ccc(O)cc4)C(=O)OC3=O)cc2C[C@@H]1O
IL-6 mRNA level (RPTEC; qPCR; 10 µg/mL, 24 h, basal, no LPS; reference: untreated): no effect

COc1cnc2cccc(N3CCc4c(cc(Cn5ccnc5C)cc4-c4cn(C)nc4C(F)(F)F)C3=O)c2c1
EC50 (SH-10-TC; cell growth, inhibitor; 120 h): 853 nM

CCN(CC)C(=S)SSC(=S)N(CC)CC
inhibition (BT-16; cell viability, MTT; 10 µM, 72 h): 89.2%

Cn1cc(-c2ccc(-c3cncc(Cl)c3N3CCC4(CCNC4=O)CC3)cc2)cn1
log2 fold change (COLO 205; gene expression, microarray, item: MIA mRNA; concentration not given, 6 h; reference: untreated cells): 2.81

CCn1cc(-c2cc(Cn3ccnc3)cc3c2CCN([C@H](c2cc(OC)ccn2)C2CC2)C3=O)c(C(F)(F)F)n1
EC50 (OV-90; cell growth, inhibitor; 120 h): > 30000 nM

O=C(/C=C/C=C/C=C/C1CCCCC1)NC1=C[C@@](O)(/C=C/C=C/C=C/C(=O)NC2=C(O)CCC2=O)[C@@H]2O[C@@H]2C1=O
GI50 (dang; cell growth, inhibitor, CellTiter-Glo luminescence; 78 h; reference: day 0 cell count): 19600 nM

COc1ccc(NC(=S)N/N=C/c2cccc3cc4ccccc4nc23)cc1
S phase cells (HeLa; PI flow cytometry; IC12.5, 48 h): 26.1 ± 0.8%

C[C@H]1O[C@@H](O[C@H]2[C@@H](O)C[C@H](O[C@H]3[C@@H](O)C[C@H](O[C@H]4CC[C@@]5(C)[C@H](CC[C@@H]6[C@@H]5C[C@@H](O)[C@]5(C)[C@@H](C7=CC(=O)OC7)CC[C@]65O)C4)O[C@@H]3C)O[C@@H]2C)C[C@H](O)[C@@H]1O
inhibition (BT-16; cell viability, MTT; 10 µM, 72 h): 91.2%

O=C(C[C@@H](C(F)F)n1ccc(F)n1)N1CCC(O)(Cn2cnc3c(cnn3-c3ccc(F)cc3)c2=O)CC1
G2/M phase cells (CHP-212 resistant; PI flow cytometry; 1 µM, 24 h): 11.9%

Cn1c(Nc2nc3ccc(C(F)(F)F)cc3s2)nc2cc(C(=O)NCCOCCO)ccc21
fold change (SH-SY5Y; RNA-seq, item: THBS1 mRNA; 5 µM, 5 h; reference: untreated cells): 2.05

CC(C)NCC(O)c1ccc(O)c(O)c1 (centres unmarked)
sarcomere length (mouse ventricular cardiomyocytes; dose not given, 0.231 s): 1.79 µm

CCn1cc(-c2cc(Cn3ccoc3=N)cc3c2CCN([C@@H](C)c2cc(OC)ccn2)C3=O)c(C(F)(F)F)n1
EC50 (NCI-H441; cell growth, inhibitor; 120 h): 351 nM

Oc1nc2nonc2cc1Nc1cccc(F)c1
activity (L6; concentration not given): inactive

CN(C)Cc1c(C(=O)NCCOc2ccc(C(=O)NO)cc2)oc2ccccc12
inhibition (BT-16; cell viability, MTT; 10 µM, 72 h): 87.2%

CC/C(=N\NC(=O)NCc1cccc(O)c1)c1ccc(O)c(C)c1O
YAP protein level (SK-OV-3; Western blot; 3D culture in gellan gum; 10 µM, 1 h, unit not given; reference: β-actin): 0.88 ± 0.44

For quick reference, copied from above:
CC(C)NCC(O)c1ccc(O)c(O)c1 (centres unmarked)
sarcomere length (mouse ventricular cardiomyocytes; dose not given, 0.231 s): 1.79 µm

CCn1cc(-c2cc(Cn3ccoc3=N)cc3c2CCN([C@@H](C)c2cc(OC)ccn2)C3=O)c(C(F)(F)F)n1
EC50 (NCI-H441; cell growth, inhibitor; 120 h): 351 nM

Oc1nc2nonc2cc1Nc1cccc(F)c1
activity (L6; concentration not given): inactive
